Assay results collected from several papers.
Compare with care: the assays were run in different laboratories. Values joined by “and” are separate records of one study, mostly repeats; a detail may differ. Numbers after ± are the reported error.
ache: Acetylcholinesterase (ache, Electrophorus electricus, UniProt O42275)

| SMILES | target | assay | system | conditions | Ki |
| --- | --- | --- | --- | --- | --- |
| CC(=O)N[C@@H](CCCNC(=N)N)C(=O)N[C@H](Cc1ccc(O)cc1)C(=O)N[C@@H](CCCNC(=N)NC(=O)NCCCCN)C(=O)N[C@@H](CC(C)C)C(=O)N[C@@H](CCCNC(=N)N)C(=O)N[C@@H](Cc1ccc(O)cc1)C(N)=O | Neuropeptide Y receptor type 5 (NPY5R, Homo sapiens, UniProt Q15761) | ligand displacement, radioligand |  |  | > 5000 nM |
| C[C@@H](O)[C@H](NC(=O)[C@H]1NC(=O)[C@H]([C@@H](C)O)NC(=O)[C@H](CCCN)NC(=O)[C@@H](Cc2c[nH]c3ccccc23)NC(=O)[C@H](Cc2ccc(O)cc2)NC(=O)[C@@H](NC(=O)[C@H](N)Cc2ccccc2)CSSC1(C)C)C(N)=O | Mu-type opioid receptor (OPRM1, Homo sapiens, UniProt P35372, C348A/C353A) | cell-free assay |  |  | 0.32 nM |
| CC(C)C(Nc1ncnc2c1oc1ccccc12)C(=O)O (stereo not shown) | Beta-lactamase (ampC, Escherichia coli K-12, UniProt P00811) |  |  |  | 400000 nM |
| CCCCCCCCCCN(O)C(=O)CCCCC[C@@H]1NC(=O)[C@H]2CCCN2C(=O)[C@H](Cc2ccccc2)NC(=O)[C@H](Cc2ccccc2)NC1=O | Histone deacetylase 11 (HDAC11, Homo sapiens, UniProt Q96DB2) | enzyme activity, inhibitor, fluorescence |  |  | 4.7 nM |
| O=c1sc2ccccc2n1CCCCCN1CCCCCC1 | Sigma non-opioid intracellular receptor 1 (Sigmar1, Rattus norvegicus, UniProt Q9R0C9) | binding, radioligand binding | rat liver membranes | together with: [3H](+)-pentazocine 5 nM | 7 ± 0.3 nM |
| CCSc1nnc(-c2ccc(S(=O)(=O)NC(=O)COC(C)=O)cc2)o1 | ache | enzyme activity, inhibitor, Ellman |  |  | 47 nM |
| CC(C)C[C@H](NC(=O)[C@H](CC(C)C)NC(=O)[C@H](CC(=O)O)NC(=O)[C@H](CC(C)C)NC(=O)[C@@H](NC(=O)[C@H](CCC(=O)O)NC(=O)[C@H](CO)NC(=O)[C@H](Cc1ccc(C(=O)c2ccccc2)cc1)NC(=O)[C@H](C)NC(=O)[C@@H](N)[C@@H](C)O)C(C)C)C(=O)N[C@@H](CCCNC(=N)N)C(=O)N[C@@H](CCCNC(=N)N)C(=O)NCC(=O)NCC(=O)NCC(=O)N[C@@H](CO)C(=O)N[C@@H](CCCCNC(=O)CCCC[C@@H]1SC[C@@H]2NC(=O)N[C@@H]21)C(N)=O | ATP2B4 (Homo sapiens, UniProt P23634) | Ca2+-Mg2+-ATPase activity, inhibitor | erythrocyte ghosts | human erythrocyte, together with: Ca2+ | 50000 ± 6000 nM |
| CC(C)[C@H](NC(=O)c1ccc(CCc2nc3c(c(=O)[nH]2)CCC3)cc1)C(=O)NC1CNC1 | Collagenase 3 (MMP13, Homo sapiens, UniProt P45452) | enzyme activity, inhibitor |  |  | 42 nM and 41.9 nM |
| CCCCc1cc(Cc2ccccc2)cc2c1NCCC2NC(=O)C(N)Cc1c(C)cc(O)cc1C (stereo not shown) | Kappa-type opioid receptor (OPRK1, Homo sapiens, UniProt P41145) | ligand displacement, radioligand |  | cell membranes | 34 nM |
| COc1ccc2[nH]cc(CCNS(=O)(=O)CCc3cn(-c4cnc5ccccc5c4)nn3)c2c1 | ache | enzyme activity, inhibitor |  |  | 22 nM |

A few entries again:
| SMILES | target | assay | system | conditions | Ki |
| --- | --- | --- | --- | --- | --- |
| CC(C)[C@H](NC(=O)c1ccc(CCc2nc3c(c(=O)[nH]2)CCC3)cc1)C(=O)NC1CNC1 | Collagenase 3 (MMP13, Homo sapiens, UniProt P45452) | enzyme activity, inhibitor |  |  | 42 nM and 41.9 nM |
